Published values of several laboratories.
Parts stem from different laboratories: compare values within a part only. Changes are numbered by the printed parent chain.

Block 1 — method: DHFR PCA, deep sequencing; sample: yeast; together with: (+)-ABA 2500 µM; relative to: wild-type fitted maximum; reading: higher = stronger binding
Target: ABI1, truncated, D143A, DHFR fusion (Arabidopsis thaliana)
Setting: methotrexate growth selection, single substitutions
Starting sequence: PYL1, truncated, DHFR fusion (Arabidopsis thaliana); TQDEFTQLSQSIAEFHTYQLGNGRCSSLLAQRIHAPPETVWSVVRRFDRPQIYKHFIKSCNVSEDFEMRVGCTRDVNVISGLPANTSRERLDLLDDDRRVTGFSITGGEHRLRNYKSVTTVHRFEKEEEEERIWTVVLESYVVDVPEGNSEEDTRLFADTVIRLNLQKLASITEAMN
Variant	relative binding score [%]
S104M	83.1
T86N	99.7
L93D	84.9
H122A	83.8
L93F	109
C60K	31.5
H16N	39.6
V142A	94
T39V	95.2
K126M	101
S42A	97.5
T154C	98.1
I33N	-8.98
I133A	103
L20N	101
E151H	99.8
Y53I	79.6
S26G	96.7
H34A	93.9
D96Y	75
E4R	93.9
F103E	5.06
C25I	93
A170S	94.5
A84L	8.82

Block 2 — target: CCNB2, cyclin fold, Cln2 fusion (human); method: yeast growth competition, sequencing; sample: yeast; setting: weak parent motif; relative to: not given; reading: higher = stronger binding
Starting sequence: CDKN1A docking peptide (human); SKACRRLFGPVDS; partner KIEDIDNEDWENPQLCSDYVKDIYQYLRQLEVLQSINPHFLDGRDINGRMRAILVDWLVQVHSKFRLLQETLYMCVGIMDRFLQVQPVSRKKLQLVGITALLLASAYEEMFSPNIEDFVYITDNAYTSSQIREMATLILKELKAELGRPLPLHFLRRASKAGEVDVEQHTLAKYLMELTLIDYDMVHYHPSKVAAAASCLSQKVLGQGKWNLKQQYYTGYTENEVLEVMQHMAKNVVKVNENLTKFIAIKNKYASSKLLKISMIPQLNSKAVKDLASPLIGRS
Variant	normalised enrichment score
SKACFRLFGPVDS [R5F]	-0.46
SKACRYLFGPVDS [R6Y]	0.381
SKACRRHFGPVDS [L7H]	0.51
AKACRRLFGPVDS [S1A]	0.637
SKACRRLFCPVDS [G9C]	0.189
STACRRLFGPVDS [K2T]	0.359
SKACRRLFGPVQS [D12Q]	0.356
SKAHRRLFGPVDS [C4H]	0.627
SKACRRLFGKVDS [P10K]	0.304
SKACRHLFGPVDS [R6H]	0.124
SKACRRLFGPLDS [V11L]	0.148
SKACERLFGPVDS [R5E]	-0.239
SKACTRLFGPVDS [R5T]	-0.0559
SKTCRRLFGPVDS [A3T]	0.3
SKACRRLFGWVDS [P10W]	0.744
SKACRRLFVPVDS [G9V]	0.453
SKACRRLFGPVES [D12E]	0.00916
SKACVRLFGPVDS [R5V]	-0.227
SKANRRLFGPVDS [C4N]	-0.0516
SKATRRLFGPVDS [C4T]	0.767
SKACRRLFRPVDS [G9R]	0.0826
SKACRRLQGPVDS [F8Q]	0.153

Block 3 — method: protein binding microarray; molecule type: double-stranded DNA, one strand shown; sample: in vitro; tested at: not given; relative to: not given; reading: higher = stronger binding
Target: Histone acetyltransferase KAT6A, winged helix 2, GST fusion (KAT6A, Homo sapiens, UniProt Q92794, residues 85-181)
Setting: 8-mer, flanks averaged, mean of 2 arrays, mostly near background
Residues (chain): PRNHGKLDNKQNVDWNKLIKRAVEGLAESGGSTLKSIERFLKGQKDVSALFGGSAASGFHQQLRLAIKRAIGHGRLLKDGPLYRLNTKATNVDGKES
Oligonucleotide	E-score
ACAGGATC	-0.114
CATGGAAA	-0.0463
ATATGGAC	-0.157
CCCACTTA	0.0289
CGGACTAG	-0.215
CAGTCCGC	0.135
TGTATGAA	-0.0575
GATAAGAA	0.144
CTGGCTAC	-0.037
AGTGCCGC	-0.0391
TAAAAGGA	0.0584
TACTTTCA	-0.00517
CGCGGGAA	0.182
CCCGAAGC	0.193
CGAATCAA	0.124
CTTAGCGA	0.133
ACCGCGGT	0.176
ACCATTCA	-0.0938
CCGGCTAA	0.066

Block 4 — method: protein-binding microarray; molecule type: double-stranded DNA, one strand shown; sample: in vitro; tested at: not given; reading: higher = stronger binding
Target: Hepatocyte nuclear factor 3-beta, forkhead domain (FOXA2, Homo sapiens, UniProt Q9Y261, residues 142-269)
Setting: k-mer, scored over probes, only values ≥0.25
Target sequence (chain): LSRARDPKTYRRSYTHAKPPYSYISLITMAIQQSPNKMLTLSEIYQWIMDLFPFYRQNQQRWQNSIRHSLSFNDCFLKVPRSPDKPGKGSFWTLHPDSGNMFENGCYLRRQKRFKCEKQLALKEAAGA
Oligonucleotide	E-score
TGTATAAA	0.341
CCTTATTA	0.306
TAAGTACA	0.278
ATAGTCAG	0.275
ATAAACAG	0.301
CACAAGTA	0.275
AACACACT	0.283
AGGTAAAC	0.251
ATATGGAG	0.252
TAATGACA	0.345
ACTGTTAT	0.312
ATAGATTA	0.343
TATACACA	0.38
ATACAAAC	0.38
ATATATTC	0.308
ACTAATGA	0.29
ATATTAGA	0.34
TGAAATAA	0.271
ACCACACA	0.254
CACATGAC	0.283
GTGTGTTA	0.326
TACACAAA	0.388

Block 5 — target: NFE2L1, bZIP domain (human); method: DHFR protein complementation; sample: yeast; relative to: wild-type JUN-FOS pair; reading: higher = stronger binding
Setting: single substitutions, most at no-binding floor
Starting sequence: JUN, bZIP domain (human); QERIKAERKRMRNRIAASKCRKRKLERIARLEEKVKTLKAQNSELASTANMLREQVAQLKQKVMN; partner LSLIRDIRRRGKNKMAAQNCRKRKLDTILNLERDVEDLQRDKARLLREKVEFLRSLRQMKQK
Variant	binding fitness [natural log]
L38S	-1.51
L31T	-1.5
L38I	-1.17
V56S	-1.58
K39V	-1.42
N42I	-1.58
Q55D	-1.49
E54L	-1.55
M51K	-1.54
E33W	-1.41
K36L	-1.46
L52W	-1.52
N42G	-1.46
R30Q	-1.53
A40N	-1.32

Block 6 — target: UBE2E2 UBC core domain (UniProt Q96LR5); method: yeast two-hybrid; sample: yeast; setting: mostly zero background; relative to: not given; reading: higher = stronger interaction
Chain of UniProt Q96LR5 (whole entry, looked up): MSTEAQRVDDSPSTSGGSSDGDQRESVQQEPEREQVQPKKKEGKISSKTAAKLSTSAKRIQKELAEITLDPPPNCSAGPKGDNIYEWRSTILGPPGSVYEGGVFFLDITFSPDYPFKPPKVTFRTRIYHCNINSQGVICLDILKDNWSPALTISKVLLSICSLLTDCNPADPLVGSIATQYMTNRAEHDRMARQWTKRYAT
B1: MSL2 RING domain (UniProt Q9HCI7); chain LLPYFRQSLSCCVCGHLLQDPIAPTNSTCQHYVCKTCKGKKMMMKPSCSWCKDYEQFEENKQ
B2: TRIM38 RING domain (UniProt O00635); chain STKKMMEEATCSICLSLMTNPVSINCGHSYCHLCITDFFKNPSQKQLRQETFCCPQCRAPFHMDSLRP
B3: NSMCE1 RING domain (UniProt Q8WV22); chain RETYPDAVKICNICHSLLIQGQSCETCGIRMHLPCVAKYFQSNAEPRCPHCNDYWPHEIPKV
B4: TRIM52 RING domain (UniProt Q96A61); chain PMQTLQEEAVCAICLDYFKDPVSISCGHNFCRGCVTQLWSKEDEEDQNEEEDEWEEEEDEEAV
B5: RFPL2 RING domain (UniProt O75678); chain MAALFQEASSCPVCSDYLEKPMSLECGCAVCLKCINSLQKEPHGEDLLCCCSSMVSRKNKIRR
B6: TRIM35 RING domain (UniProt Q9UPQ4); chain PSRSFKEELLCAVCYDPFRDAVTLRCGHNFCRGCVSRCWEVQVSPTCPVCKDRASPADLRT
B7: RNF14 RING domain (UniProt Q9UBS8); chain IKCFNSKLFLCSICFCEKLGSECMYFLECRHVYCKACLKDYFEIQIRDGQVQCLNCPEPKCPSVATPGQVK
B8: TRIM15 RING domain (UniProt Q9C019); chain SLKVVHELPACTLCAGPLEDAVTIPCGHTFCRLCLPALSQMGAQSSGKILLCPLCQEEEQAETPMA
B9: RNF150 RING domain (UniProt Q9ULK6); chain DKETESDFDNCAVCIEGYKPNDVVRILPCRHLFHKSCVDPWLLDHRTCPMCKMNILKALGIP
B10: RNF43 RING domain (UniProt Q68DV7); chain SGSSCSSAPVCAICLEEFSEGQELRVISCLHEFHRNCVDPWLHQHRTCPLCMFNITEGDSFS
Sequence	lacZ reporter activity
B1 (MSL2 RING domain)	0
KIKDLNEHIVCCLCAGYFVDATTITECLHTFCKSCIVKYLQTSKYCPMCNIKIHETQPLL (PCGF1 RING domain (UniProt Q9BSM1))	0
B2 (TRIM38 RING domain)	0
KRQCSDVDDICSICQAEFQKPILLICQHIFCEECMTLWFNREKTCPLCRTVISDHINKW (RNFT1 RING domain (UniProt Q5M7Z0))	0
B3 (NSMCE1 RING domain)	0
B4 (TRIM52 RING domain)	0
B5 (RFPL2 RING domain)	0
B6 (TRIM35 RING domain)	0
B7 (RNF14 RING domain)	0
LKQVSIRENCCSLCCDEVADTQLKPCGHSDLCMDCALQLETCPLCRKEIVSRIRQI (RSPRY1 RING domain (UniProt Q96DX4))	0
QLQDEEDDSLCRICMDAVIDCVLLECGHMVTCTKCGKRMSECPICRQYVVRAVHVF (RNF34 RING domain (UniProt Q969K3))	0
SYEDKSNDFVCPICFDMIEEAYMTKCGHSFCYKCIHQSLEDNNRCPKCNYVVDNIDHLY (COP1 RING domain (UniProt Q8NHY2))	0
B8 (TRIM15 RING domain)	0
B9 (RNF150 RING domain)	0
B10 (RNF43 RING domain)	0

Block 7 — method: universal PBM; molecule type: double-stranded DNA, one strand shown; sample: in vitro; tested at: 600 nM; reading: higher = stronger binding
Target: Sal-like protein 4, full length isoform A (SALL4, Homo sapiens, UniProt Q9UJQ4, residues 1-1053)
Chain of UniProt Q9UJQ4 (whole entry, looked up): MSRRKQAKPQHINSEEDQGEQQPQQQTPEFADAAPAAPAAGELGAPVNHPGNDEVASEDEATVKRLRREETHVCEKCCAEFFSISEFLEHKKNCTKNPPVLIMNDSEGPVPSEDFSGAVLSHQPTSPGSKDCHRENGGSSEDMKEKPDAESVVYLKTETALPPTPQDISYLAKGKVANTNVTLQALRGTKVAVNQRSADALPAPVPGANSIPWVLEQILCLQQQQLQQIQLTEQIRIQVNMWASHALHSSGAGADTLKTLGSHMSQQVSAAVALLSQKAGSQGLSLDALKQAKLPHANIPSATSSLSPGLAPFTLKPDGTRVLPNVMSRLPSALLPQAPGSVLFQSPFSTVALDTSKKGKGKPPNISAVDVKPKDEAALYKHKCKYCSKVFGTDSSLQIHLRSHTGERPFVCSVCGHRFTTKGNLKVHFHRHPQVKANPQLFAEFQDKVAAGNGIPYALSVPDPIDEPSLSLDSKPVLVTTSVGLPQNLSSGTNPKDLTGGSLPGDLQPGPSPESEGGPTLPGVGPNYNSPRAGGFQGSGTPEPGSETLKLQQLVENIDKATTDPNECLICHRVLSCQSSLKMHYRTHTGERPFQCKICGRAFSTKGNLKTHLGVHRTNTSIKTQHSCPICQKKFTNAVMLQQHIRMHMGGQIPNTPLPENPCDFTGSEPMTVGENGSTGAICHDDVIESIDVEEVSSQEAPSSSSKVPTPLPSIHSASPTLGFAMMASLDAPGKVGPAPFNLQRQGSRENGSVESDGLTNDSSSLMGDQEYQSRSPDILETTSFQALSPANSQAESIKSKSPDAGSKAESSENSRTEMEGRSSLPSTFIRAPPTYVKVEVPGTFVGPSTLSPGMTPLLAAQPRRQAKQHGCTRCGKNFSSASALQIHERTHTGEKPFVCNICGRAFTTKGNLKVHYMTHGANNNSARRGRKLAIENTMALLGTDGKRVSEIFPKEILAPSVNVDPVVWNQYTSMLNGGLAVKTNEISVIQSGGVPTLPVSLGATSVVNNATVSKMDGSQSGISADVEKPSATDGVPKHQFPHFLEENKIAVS
Setting: 8-mer, flanks averaged, mean of replicates
Oligonucleotide	E-score
AATTCTTG	0.208
ATAATAGC	0.266
AAGTGACT	0.0473
AGCTGCTG	-0.205
CCTGCTAG	-0.162
CCTCGATC	-0.146
GTCACAAC	-0.0174
GTAGGGCA	-0.189
CGCACGGA	-0.234
TATCCAAA	0.228
TCGAACCA	-0.134
CTAATGAG	0.0629
CTGTTCAC	-0.0508
AGCACGTC	-0.144
CCCTACCG	-0.206
CCACGAAC	0.044
CGCTACGA	-0.0405
ACTCCGTG	-0.2
TCGTGGCA	0.0927
ATGCAGTC	0.0841
CCTTATAG	0.246
CGCTCGGA	-0.124

Excerpt of the above (block 7):
Oligonucleotide	E-score
ATAATAGC	0.266
AAGTGACT	0.0473
AGCTGCTG	-0.205
CCTGCTAG	-0.162
CCTCGATC	-0.146
GTCACAAC	-0.0174
GTAGGGCA	-0.189
CGCACGGA	-0.234
TATCCAAA	0.228
TCGAACCA	-0.134
CTAATGAG	0.0629
CTGTTCAC	-0.0508
AGCACGTC	-0.144
CCCTACCG	-0.206
